Assay results of several laboratories.
Parts stem from different laboratories: compare values within a part only. Changes are numbered by the printed parent chain.

Block 1 — method: protein binding microarray; molecule type: double-stranded DNA, one strand shown; medium: in vitro; tested at: not given; relative to: not given; reading: higher = stronger binding; quantity: E-score
Target: Histone acetyltransferase KAT6A, winged helix 2, GST fusion (KAT6A, Homo sapiens, UniProt Q92794, residues 85-181)
Notes: 8-mer, flanks averaged, mean of 2 arrays, mostly near background
Residues (chain): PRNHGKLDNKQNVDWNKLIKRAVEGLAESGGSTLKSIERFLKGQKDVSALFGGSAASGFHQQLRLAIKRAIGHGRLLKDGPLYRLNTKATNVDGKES
Strand = GACACTAC; value = -0.0165
Strand = AGGCTTGG; value = 0.0424
Strand = CACCATAC; value = -0.068
Strand = CCTGGCTA; value = -0.0714
Strand = CAGTTAAG; value = 0.0484
Strand = ACCCTTAA; value = 0.0218
Strand = GTGGTTCA; value = 0.0225
Strand = CTGTCTGA; value = 0.0533
Strand = CAGCTCGA; value = 0.0289
Strand = GTCTACCA; value = -0.211
Strand = TGATATCA; value = 0.015
Strand = CCCGCATA; value = 0.222
Strand = CCCCGAAG; value = 0.109
Strand = CGCCCGCC; value = 0.225
Strand = CAATCTCA; value = -0.127
Strand = CGGCAGGA; value = 0.101
Strand = CATAAAGG; value = 0.0783
Strand = AGGACCAG; value = 0.0758
Strand = ATTGATGC; value = 0.0641
Strand = ACTTCTTC; value = -0.0647
Strand = GCCCCTAA; value = -0.114
Strand = AGCACGTC; value = -0.0891
Strand = GCATCCAA; value = -0.0719
Strand = ACGTCGCA; value = 0.00473
Strand = TAACAGTA; value = -0.122

Block 2 — method: protein-binding microarray; molecule type: double-stranded DNA, one strand shown; medium: in vitro; tested at: 250 nM; notes: 60-bp whole probe; with: salmon DNA 0.4 mg/ml; relative to: random background probes; reading: higher = stronger binding; quantity: log fluorescence; constant ends, left off below: GCCTAGCAC … GTCTTGATTCGCTTGACGCTGCTG
Target: Interferon regulatory factor 5, full length, phosphomimetic (IRF5, Homo sapiens, UniProt Q13568-2, residues 1-514, K96S/S451D/S453D/S456D/S462D)
Strand = TTAGATTTCGGCACTGGATTAGTGCTA; value = 3.01 z-score
Strand = GACGCTTTCAGACTGGAGACGTGCTAG; value = 0.76 z-score
Strand = GACGTTTTCAGTCTCGAGACGTGCTAG; value = 2.28 z-score
Strand = TGAGGACTGCTTCTCCTTTAGTGCTAG; value = -0.542 z-score
Strand = TCAGGACTCGGGTCTCCCACTGTGCTA; value = -0.753 z-score
Strand = TTAGGTTTCCATCTCCTTTAGTGCTAG; value = 1.25 z-score
Strand = TCAACTTTCACTTCTCCACTGTGCTAG; value = 7.46 z-score
Strand = TTAGGTATCGGTGTCGGTTAGTGCTAG; value = 5.72 z-score
Strand = GACGGTATCGGGTAACGGGACGTGCTA; value = 3.37 z-score
Strand = GACGATTTCGGGGATCGAGACGTGCTA; value = 2.02 z-score
Strand = GACGATATCACTATCGAGACGTGCTAG; value = 4.63 z-score
Strand = GACGGTTCCGGTCTCGGGACGTGCTAG; value = 0.747 z-score
Strand = TTAGAACTGGGGACTGAATTAGTGCTA; value = -0.101 z-score
Strand = TTAGGTCTTGGACTGGGTTAGTGCTAG; value = -0.38 z-score
Strand = GACGATATCAGACTGGAGTCGTGCTAG; value = 0.427 z-score
Strand = GACGAACTGACTATCGAGACGTGCTAG; value = 2.12 z-score
Strand = CCTATCTTATGATATATATAAGTGCTA; value = 0.671 z-score
Strand = TTAGGACTGGACTAACGGTTAGTGCTA; value = -0.441 z-score
Strand = GACGGTACCGACTATCGGGACGTGCTA; value = 1.38 z-score

Block 3 — target: CCNB3, cyclin fold, Cln2 fusion (human); method: yeast growth competition, sequencing; medium: yeast; notes: weak parent motif; relative to: not given; reading: higher = stronger binding; quantity: normalised enrichment score
Starting sequence: RB1 docking peptide (human); PKPLKKLRFDIEG; partner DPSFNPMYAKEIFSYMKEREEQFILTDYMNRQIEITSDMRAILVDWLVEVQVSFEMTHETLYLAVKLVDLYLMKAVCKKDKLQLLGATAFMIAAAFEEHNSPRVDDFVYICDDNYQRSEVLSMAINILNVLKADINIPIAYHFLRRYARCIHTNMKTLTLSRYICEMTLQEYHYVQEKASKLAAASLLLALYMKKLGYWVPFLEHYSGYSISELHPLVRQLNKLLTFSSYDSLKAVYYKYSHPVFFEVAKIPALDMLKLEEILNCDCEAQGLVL
Variant = PIPLKKLRFDIEG [K2I]; value = 0.716
Variant = PKPLKCLRFDIEG [K6C]; value = 0.205
Variant = PKPLKPLRFDIEG [K6P]; value = 0.497
Variant = PKPLKKLRFDIDG [E12D]; value = -0.0353
Variant = PKPLKKLYFDIEG [R8Y]; value = 0.17
Variant = PKPLRKLRFDIEG [K5R]; value = -0.0602
Variant = PKPLKKLRMDIEG [F9M]; value = 0.0862
Variant = AKPLKKLRFDIEG [P1A]; value = 0.504
Variant = PKALKKLRFDIEG [P3A]; value = 0.198
Variant = PKPLKKLEFDIEG [R8E]; value = 0.079
Variant = PKPLKKLTFDIEG [R8T]; value = 0.725
Variant = PKPLKKCRFDIEG [L7C]; value = 0.221
Variant = PPPLKKLRFDIEG [K2P]; value = 0.221
Variant = PKPLKKLRFNIEG [D10N]; value = 0.427
Variant = PKPLKKLRPDIEG [F9P]; value = 0.0182
Variant = GKPLKKLRFDIEG [P1G]; value = 0.45
Variant = PKPLKKLRFDIEK [G13K]; value = 0.332
Variant = PKPLKKLRFDQEG [I11Q]; value = -0.188
Variant = PKPLKKLRFPIEG [D10P]; value = 0.0796

Block 4 — method: DHFR PCA, deep sequencing; medium: yeast; with: (+)-ABA 0.39 µM; relative to: wild-type fitted maximum; reading: higher = stronger binding; quantity: relative binding score
Target: ABI1, truncated, D143A, DHFR fusion (Arabidopsis thaliana)
Notes: methotrexate growth selection, single substitutions
Starting sequence: PYL1, truncated, DHFR fusion (Arabidopsis thaliana); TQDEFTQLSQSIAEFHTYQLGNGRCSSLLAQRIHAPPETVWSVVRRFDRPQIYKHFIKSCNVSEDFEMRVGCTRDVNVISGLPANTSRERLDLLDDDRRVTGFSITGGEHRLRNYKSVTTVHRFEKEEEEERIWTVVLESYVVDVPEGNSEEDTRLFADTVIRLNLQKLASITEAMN; partner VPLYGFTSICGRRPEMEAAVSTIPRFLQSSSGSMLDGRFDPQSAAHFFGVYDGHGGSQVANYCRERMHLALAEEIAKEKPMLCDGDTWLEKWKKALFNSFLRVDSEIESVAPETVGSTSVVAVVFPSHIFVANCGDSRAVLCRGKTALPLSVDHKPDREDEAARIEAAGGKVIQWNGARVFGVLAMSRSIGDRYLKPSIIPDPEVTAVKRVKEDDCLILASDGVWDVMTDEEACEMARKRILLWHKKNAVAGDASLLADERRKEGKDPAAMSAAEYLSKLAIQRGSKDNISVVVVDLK
Variant = G107E; value = 21%
Variant = R90K; value = 18.5%
Variant = H34S; value = 39.1%
Variant = Y141I; value = -9.36%
Variant = T101R; value = -10.8%
Variant = V161E; value = -17.3%
Variant = G21Y; value = 11.7%
Variant = Q51G; value = 5.13%
Variant = L166H; value = 12.3%
Variant = R32G; value = 4.32%
Variant = V118H; value = 17.5%
Variant = Q7G; value = 44.4%
Variant = T160P; value = -13.5%
Variant = S26V; value = 0.662%
Variant = R163W; value = -3.13%
Variant = F15Q; value = 3.42%

Block 5 — method: RNA Bind-n-Seq; molecule type: RNA; medium: in vitro; tested at: 365 nM; relative to: no-protein control; reading: higher = stronger binding; quantity: RBNS enrichment (R)
Target: RNA binding protein fox-1 homolog 2, RRM domain, GST-SBP tag (RBFOX2, Homo sapiens, UniProt O43251-10, residues 100-194)
Notes: natural RNA segment, single round, ends assumed
Constant ends, left off below: GGGAGUUCUACAGUCCGACGAUC … UGGAAUUCUCGGGUGCCAA
Target sequence (chain): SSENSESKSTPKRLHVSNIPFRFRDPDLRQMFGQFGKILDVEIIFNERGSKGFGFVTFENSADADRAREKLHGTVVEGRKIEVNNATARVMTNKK
Strand = UUCUUAUGUAUUAUGAAAGUGAUAAGAAGACAAAUUAAGUGGGUAUAUUUUAUAAAAUAAAUUCAUGAAGAGAUUUGUGUUCUUCAGUUUAUUGUCACUACAGUAUUGAA; value = 0.671
Strand = UCUGCAUUGUAGUCUGAGUGUGCCACAUGUUAGCAAUGUGACCUUGGGCCACACACCUCUUCUGGGCCUUACUUUGCUCUGCUGUAAGGUGUGGGCAUUUAAGAGGUACC; value = 0.243
Strand = GUGCAUGCUUUUUUUCUUUUUGCCGUGAGGACAGUUGAAUUUGGGGCAUUUUUCUACAAGAAGCAGUCAGCCUUCUCUCCCCCAUAAGGACUGGCUGUAACCUUAAGCCC; value = 3.33
Strand = GGGGUUAUAUUUCUAAGUGAUUUACAAUUUCUGUUUCUAAAAUUGUUGGGAUUUAGAAAUGUUUCAAUUCCAAGAAAUUUUAUUUUACUUUACCAUGAGAUUGCCAUUUA; value = 0.749
Strand = GGAGCUAUUUUCUUUUUUGUGCAUAUAGAUAUUUCUUAAAUGAAGCUGCUUUCUUGUCUUUUAUUUCUAAAAGCCCCCUUAUACCCCACUUUGUGCAGCAAAGAUCCCCG; value = 1.29
Strand = UUUCGGGGGUUCUUUGGGGUUUGUUUGUUUGCUUCUUUUCCAGAGUGUGGAAAGUCUACAGUGCAGAAAGGCUUGAACCUGCCAGCUGAUUUGAAAUACUUUCCCCUGCG; value = 2.53
Strand = AAGAGUGGUUUUAACAUGGGACAGAAAAUAGUCUUUUCCUAUUCUCUCAAUCCAUUUUUAGGUAGAAAGGGUCUUAAGUGAUACUUAUGCUUUGGCAUCCAGAGCAUAAG; value = 0.212
Strand = UAGCCCAGGCCAAGGUAAAGUUAGUUAAUAGCAUUGGGAUAUAGUCACUGUAAUGGUGCUAUUAACAAACAGUCAACACCAUUGUAUUUUUUAACUUCGUGUUCUGUAUC; value = 0.479
Strand = UUAAGAAACCAAAUAAAUUGGUUUUGCUUCCUUGCCAUGGAUUCUGGAAGGACAUAGUUCUUCUAAAAUUUCCUGUUAAUUGGCAUGUACGUCUCAUUUAAAGCAAAUUA; value = 0.337
Strand = AUUAAAACAUGAACCUCAUUUUAGAAAUCGACAGCUAUGGUAUUUUUUUAAUGAUCAGCUUUUCUGUUUAUUGUAAAACUAAGUUAAAAAAUAAAAGGUUAAUGAGAAAU; value = 0.988
Strand = CAGAGAAAGGGAGGUGAGGUUUCCACCAUGUUGGCUGUUGACUCUCCCUGUAUGUUAAACCCUUGACCAGUUUACUCGUUUCUAUCCUGGAAGAUUUUUAACAAAGGGAA; value = 0.608
Strand = UAUCCAUGCUAGAACCAUGGUAUCCCAUGGGAAGCAGACAGCAGGCAAGGAGAGGCGUGGACACCGGCCACAGGUGUGCCCGAGCCCCAUCCUACCUGAGUCUCUGUCUC; value = 0.322

Other studies, line by line
Substance = PhoQ, residues 284 288 289 292 302 303 TGYLSA; target = PhoP, residues 12 14 15 18 19 STWGI (Escherichia coli, UniProt P23836); assay = Sort-seq, item: YFP reporter; system = E. coli; conditions = PhoQ-PhoP variant library, with: 10 µM Mg2+; how to read = relative to: high Mg2+ state, higher = stronger signaling; quantity = fold induction; value = 13.8

Repeated from above (block 3):
Variant = PIPLKKLRFDIEG [K2I]; value = 0.716
Variant = PKPLKCLRFDIEG [K6C]; value = 0.205
Variant = PKPLKPLRFDIEG [K6P]; value = 0.497
Variant = PKPLKKLRFDIDG [E12D]; value = -0.0353
Variant = PKPLKKLYFDIEG [R8Y]; value = 0.17
Variant = PKPLRKLRFDIEG [K5R]; value = -0.0602
Variant = PKPLKKLRMDIEG [F9M]; value = 0.0862
Variant = AKPLKKLRFDIEG [P1A]; value = 0.504
Variant = PKALKKLRFDIEG [P3A]; value = 0.198
Variant = PKPLKKLEFDIEG [R8E]; value = 0.079
Variant = PKPLKKLTFDIEG [R8T]; value = 0.725
Variant = PKPLKKCRFDIEG [L7C]; value = 0.221
Variant = PPPLKKLRFDIEG [K2P]; value = 0.221
Variant = PKPLKKLRFNIEG [D10N]; value = 0.427
